Measured values of several laboratories.
Lines come from different studies, so protocols differ. Values joined by “and” are separate records of one study, mostly repeats; a detail may differ. ± gives the spread as reported.

| SMILES | assay | test system | conditions | how to read | quantity | value |
| --- | --- | --- | --- | --- | --- | --- |
| C=CC(=O)N1CC2C(=O)N(CCN(C)C)c3c(c4cc(Cl)c(-c5c(O)cccc5F)nc4n(-c4c(C)ccnc4C(C)C)c3=O)N2CC1C (stereo not drawn) | immunohistochemistry | BALB/c nude mouse, H23-Luc intracranial tumour, brain tissue | 100 mg/kg, 21 days |  | p-ERK level | decreased |
| CNC(=O)c1ccc(C2CCCCC2)cc1 | hepatocyte stability | cryopreserved human hepatocytes | 1 µM |  | hepatic clearance | 19 mL/min/kg |
| Cc1ccc(NC(=O)NCc2ccc3c(c2)CN(C2CCC(=O)NC2=O)C3=O)cc1Cl (stereo not drawn) | deuterium-hydrogen exchange | aqueous phosphate buffer | pH 7.4, 37 °C |  | exchange rate constant | -0.0206 h⁻¹ |
| COC1CN([C@H]2CC[C@H]([C@@]3(C)Oc4c(Cl)cc(C(=O)NCc5c(SC)cc(C)[nH]c5=O)c(C)c4O3)CC2)C1 | RNA-seq, item: NDST3 mouse homolog | mouse, HT-1376 xenograft, whole blood | dose not given | relative to: vehicle | log2 fold change | 0.104 |
| COCC1CN(C2CCN(c3cc(OC)c(Nc4ncc(Br)c(Nc5ccc6c(c5P(C)(C)=O)OCCO6)n4)cc3C)CC2)C1 | RECIST 1.1 | advanced EGFR-mutant NSCLC patients | 240 mg once daily |  | disease control rate | 0% |
| CC(C)(C)NCC(SS(=O)(=O)O)c1ccccc1 (stereo not drawn) |  | Swiss Webster mice, Schistosoma mansoni-infected | 100 mg/kg x 4 doses from day 42 post-infection, perfusion day 56 post-infection | relative to: vehicle | spleen weight decrease | 42% |
| COC1OC(C)C(OS(=O)(=O)O)C(OC2OC(C)C(OS(=O)(=O)O)C(OC3OC(C)C(OS(=O)(=O)O)C(OC4OC(C)C(OS(=O)(=O)O)C(OC5OC(C)C(OS(=O)(=O)O)C(OC6OC(C)C(OS(=O)(=O)O)C(OC7OC(C)C(OS(=O)(=O)O)C(OS(=O)(=O)O)C7OS(=O)(=O)O)C6OS(=O)(=O)O)C5OS(=O)(=O)O)C4OS(=O)(=O)O)C3OS(=O)(=O)O)C2OS(=O)(=O)O)C1OS(=O)(=O)O (stereo not drawn) |  | human plasma | 32 µg/mL |  | activated partial thromboplastin time | 84.4 s and 83.6 s and 84.7 s |
| COc1cc(O)ccc1CCC(c1ccc(O)cc1)c1cc2c(c(C)c1O)OC(c1ccc(O)cc1)CC2 (mixture of isomers) |  | human blood | 1 µM, added: A23187 |  | TXB2 level | 527 ± 128 pg/mL |
| COC1OC(C)C(OS(=O)(=O)O)C(OC2OC(C)C(OS(=O)(=O)O)C(OS(=O)(=O)O)C2O)C1O (stereo not drawn) |  | human plasma | 128 µg/mL |  | activated partial thromboplastin time | 36.3 ± 0.7 s |
| NC[C@@H](C(=O)Nc1ccc(-c2cn[nH]c2)cc1)c1ccccc1 | tonometry | Macaca cyclopis, ocular normotensive | ocular, 0.03%, 4 h |  | IOP | 17.6 mmHg |
| COC1OC(C)C(OC2OC(C)C(O)C(OC3OC(C)C(OC4OC(C)C(O)C(OC5OC(C)C(OC6OC(C)C(O)C(OC7OC(C)C(OC8OC(C)C(O)C(OC9OC(C)C(O)C(OS(=O)(=O)O)C9OS(=O)(=O)O)C8OS(=O)(=O)O)C(OS(=O)(=O)O)C7OS(=O)(=O)O)C6OS(=O)(=O)O)C(OS(=O)(=O)O)C5OS(=O)(=O)O)C4OS(=O)(=O)O)C(OS(=O)(=O)O)C3OS(=O)(=O)O)C2OS(=O)(=O)O)C(OS(=O)(=O)O)C1OS(=O)(=O)O (stereo not drawn) |  | human plasma | 64 µg/mL |  | activated partial thromboplastin time | 103 s and 99.4 s and 102 s |
| Cc1ccc(-c2ccc([C@H]3[C@@H](F)[C@@H](F)C[C@@H](F)[C@H]3F)cc2)cn1 | liver microsome stability | mouse liver microsomes | 1 µM |  | hepatic clearance | 70 mL/min/kg |

Excerpt of the above:
| SMILES | assay | test system | conditions | how to read | quantity | value |
| --- | --- | --- | --- | --- | --- | --- |
| NC[C@@H](C(=O)Nc1ccc(-c2cn[nH]c2)cc1)c1ccccc1 | tonometry | Macaca cyclopis, ocular normotensive | ocular, 0.03%, 4 h |  | IOP | 17.6 mmHg |
